Experimental data collected from several papers.
Each numbered part is a random draw from the data of one study; scales do not carry over between parts. Substitutions count along the parent as printed.
UniProt Q08881, sequence (whole entry, looked up): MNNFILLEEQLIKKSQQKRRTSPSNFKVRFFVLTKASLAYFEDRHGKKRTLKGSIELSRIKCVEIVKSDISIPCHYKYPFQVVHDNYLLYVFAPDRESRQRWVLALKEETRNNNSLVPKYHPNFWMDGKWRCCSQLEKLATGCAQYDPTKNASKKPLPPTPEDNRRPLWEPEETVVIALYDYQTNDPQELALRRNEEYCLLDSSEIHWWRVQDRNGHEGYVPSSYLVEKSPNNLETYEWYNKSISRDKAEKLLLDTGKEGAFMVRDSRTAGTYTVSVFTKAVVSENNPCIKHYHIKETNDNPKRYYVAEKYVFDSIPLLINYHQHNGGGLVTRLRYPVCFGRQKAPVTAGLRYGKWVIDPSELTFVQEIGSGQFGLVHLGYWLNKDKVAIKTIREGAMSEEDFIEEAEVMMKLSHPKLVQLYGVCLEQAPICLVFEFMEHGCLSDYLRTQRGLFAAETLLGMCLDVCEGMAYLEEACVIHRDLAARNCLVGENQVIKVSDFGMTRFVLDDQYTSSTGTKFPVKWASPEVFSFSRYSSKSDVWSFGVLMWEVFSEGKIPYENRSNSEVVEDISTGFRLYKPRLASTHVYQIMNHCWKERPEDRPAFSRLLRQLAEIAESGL

Block 1
Substitution: P83G
Target: ABI1, truncated, D143A, DHFR fusion (Arabidopsis thaliana)
Technique: DHFR PCA, deep sequencing
Medium: yeast
Notes: methotrexate growth selection, single substitutions
Relative to: wild-type fitted maximum
Reading: higher = stronger binding
Starting sequence: PYL1, truncated, DHFR fusion (Arabidopsis thaliana); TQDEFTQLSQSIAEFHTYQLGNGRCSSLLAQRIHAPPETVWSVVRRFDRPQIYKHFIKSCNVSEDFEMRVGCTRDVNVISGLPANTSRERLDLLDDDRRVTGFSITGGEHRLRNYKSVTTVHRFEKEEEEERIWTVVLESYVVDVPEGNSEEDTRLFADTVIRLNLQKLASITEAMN; partner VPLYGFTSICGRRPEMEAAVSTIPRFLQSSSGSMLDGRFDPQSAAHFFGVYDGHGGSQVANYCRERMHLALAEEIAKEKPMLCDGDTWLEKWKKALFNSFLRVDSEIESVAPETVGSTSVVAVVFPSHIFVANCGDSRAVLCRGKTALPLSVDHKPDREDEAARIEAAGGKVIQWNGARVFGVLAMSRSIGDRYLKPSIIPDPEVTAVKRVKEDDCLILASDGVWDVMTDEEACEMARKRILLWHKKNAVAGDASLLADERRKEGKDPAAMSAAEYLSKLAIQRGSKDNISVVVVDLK
| added | relative binding score [%] |
| --- | --- |
| (+)-ABA 0.0091 µM | 58.7 |
| (+)-ABA 2500 µM | 86.7 |
| (+)-ABA 200 µM | 73 |
| (+)-ABA 17 µM | 39.3 |
| (+)-ABA 0.39 µM | 56.6 |
| (+)-ABA 0 µM | 54.4 |

Block 2
Target: RNA binding protein fox-1 homolog 2, RRM domain, GST-SBP tag (RBFOX2, Homo sapiens, UniProt O43251-10, residues 100-194)
Technique: RNA Bind-n-Seq
Form: RNA
Medium: in vitro
Concentration: 365 nM
Notes: natural RNA segment, single round, ends assumed
Relative to: no-protein control
Reading: higher = stronger binding
Shared flanks, not repeated: GGGAGUUCUACAGUCCGACGAUC … UGGAAUUCUCGGGUGCCAA
Target sequence (chain): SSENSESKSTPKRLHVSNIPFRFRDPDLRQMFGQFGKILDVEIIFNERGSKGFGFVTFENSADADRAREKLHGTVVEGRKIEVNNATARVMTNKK
| Strand | RBNS enrichment (R) |
| --- | --- |
| ACGGGAGCCCUUCUCCCUGACCCUGGGCUGCUUCCUGGGGGCUCUCCAGACCCCUCUCUAGGACCAAGUCACCCGUCGUGCUGGGAGUGUGGAUUCUAGCAAAAGAGCUG | 0.262 |
| CCACUUGGUUUUUGACUGAAGGGGAAGUGUAGAAAUAUAUUGAUUUGUGAUUUCUGGUGUCACCUGUGUUACCAAAAAUCAAAACAAAUCUUUUUUAUUUUUUAUUAUUA | 0.332 |
| CUCACAGCAAGCACAAGUUGUCUGCACCACUUGGUUUCUGACUGAAGGGGAAGUACAGGACUACAUGGAAUCUGAUUUCUGGUGUUGCUUAUUACCAAAAAUGACAGAAU | 0.767 |
| ACUAAGUUAAUUUAGUAUAAAAAUAGAAUUGAUAGUGAGGGUAUAAAGUGUAACCAUCAGUUAAACCUCUCCUGUCAUUCCUGGCUUCCUUGCUUCAGAAUUGAAAUGGA | 0.258 |
| CCAUCGGGGACACAGAGUGGCCAGGGCACCCCACCCUUGUCUCCGUGUACCCUAGCUCCCCAUCACUGCGCGCCCUCCAAGCUAGAGAGAUGGGACCCCAGGGGGGGUUA | 0.426 |
| CGUCCCACACUACGCCCCCGCCCCACUCCCGGGGCCUGCUAAUCUGAGGCCGAUCCGGGACCGGCCUCCUUGCGUCUCCCAUUCCCAAGAUUGUCCCGCCUCUGCCAAUC | 0.854 |
| AACCCACAAUCUCCACCAGCAGAGCUGGUGUUGUUCUGAAUAGUGCAGACUGAUUCGAACACAAGGCAUCUGUGAGGGGAGUCCUCCCUCUUCAAAGCAUCUGUGUGAGG | 0.476 |
| GCGUUUAACAAACUAGCAUGAGGCCUUUCAUAUCUAAAUGCUGUGUGAUAGACAAUUUCAGCUAGCCACAUAUUGUAUUAUGAAAUUCAUAAAGAUUUUCAAUCAUUCAA | 0.513 |

Single results of other studies
| Molecule | target | test | test system | setting | scale | endpoint | value |
| --- | --- | --- | --- | --- | --- | --- | --- |
| O=C(O)/C=C/c1cc(Br)c(Br)c(Br)c1Br | ITK (Homo sapiens, UniProt Q08881) | enzyme activity, inhibitor |  | 0.5 µM | relative to: control | remaining activity | 100% |
| PhoQ, residues 284 288 289 292 302 303 AAQSYM | PhoP, residues 12 14 15 18 19 NQAHL (Escherichia coli, UniProt P23836) | Sort-seq, measured: YFP reporter | E. coli | PhoQ-PhoP variant library, added: 10 µM Mg2+ | relative to: high Mg2+ state, higher = stronger signaling | fold induction | 2.83 |

Excerpt of the above (block 2):
| Strand | RBNS enrichment (R) |
| --- | --- |
| ACUAAGUUAAUUUAGUAUAAAAAUAGAAUUGAUAGUGAGGGUAUAAAGUGUAACCAUCAGUUAAACCUCUCCUGUCAUUCCUGGCUUCCUUGCUUCAGAAUUGAAAUGGA | 0.258 |
| GCGUUUAACAAACUAGCAUGAGGCCUUUCAUAUCUAAAUGCUGUGUGAUAGACAAUUUCAGCUAGCCACAUAUUGUAUUAUGAAAUUCAUAAAGAUUUUCAAUCAUUCAA | 0.513 |
